Assay results pooled from the literature.
Compare with care: the assays were run in different laboratories.
B1: PYCR2 R251C (Homo sapiens, UniProt Q96C36); chain MSVGFIGAGQLAYALARGFTAAGILSAHKIIASSPEMNLPTVSALRKMGVNLTRSNKETVKHSDVLFLAVKPHIIPFILDEIGADVQARHIVVSCAAGVTISSVEKKLMAFQPAPKVIRCMTNTPVVVQEGATVYATGTHALVEDGQLLEQLMSSVGFCTEVEEDLIDAVTGLSGSGPAYAFMALDALADGGVKMGLPRRLAIQLGAQALLGAAKMLLDSEQHPCQLKDNVCSPGGATIHALHFLESGGFCSLLINAVEASCIRTRELQSMADQEKISPAALKKTLLDRVKLESPTVSTLTPSSPGKLLTRSLALGGKKD
B2: UGT1A1 (Homo sapiens, UniProt P22309); chain HAGKILLIPVDGSHWLSMLGAIQQLQQRGHEIVVLAPDASLYIRDGAFYTLKTYPVPFQREDVKESFVSLGHNVFENDSFLQRVIKTYKKIKKDSAMLLSGCSHLLHNKELMASLAESSFDVMLTDPFLPCSPIVAQYLSLPTVFFLHALPCSLEFEATQCPNPFSYVPRPLSSHSDHMTFLQRVKNMLIAFSQNFLCDVVYSPYATLASEFLQREVTVQDLLSSASVWLFRSDFVKDYPRPIMPNMVFVGGINCLHQNPLSQEFEAYINASGEHGIVVFSLGSMVSEIPEKKAMAIADALGKIPQTVLWRYTGTRPSNLANNTILVKWLPQNDLLGHPMTRAFITHAGSHGVYESICNGVPMVMMPLFGDQMDNAKRMETKGAGVTLNVLEMTSEDLENALKAVINDKSYKENIMRLSSLHKDRPVEPLDLAVFWVEFVMRHKGAPHLRPAAHDLTWYQYHSLDVIGFLLAVVLTVAFITFKCCAYGYRKCLGKKGRVKKAHKSKTH
B3: enzyme (Pseudomonas aeruginosa, UniProt Q9I5Q5); chain MPRYLGLMSGTSLDGMDIVLIEQGDRTTLLASHYLPMPAGLREDILALCVPGPDEIARAAEVEQRWVALAAQGVRELLLQQQMSPDEVRAIGSHGQTIRHEPARHFTVQIGNPALLAELTGIDVVADFRRRDVAAGGQGAPLVPAFHQALFGDDDTSRAVLNIGGFSNVSLLSPGKPVRGFDCGPGNVLMDAWIHHQRGEHFDRDGAWAASGQVNHALLASLLADEFFAARGPKSTGRERFNLPWLQEHLARHPALPAADIQATLLELSARSISESLLDAQPDCEEVLVCGGGAFNTALMKRLAMLMPEARVASTDEYGIPPAWMEGMAFAWLAHRFLERLPGNCPDVTGALGPRTLGALYPA
B4: enzyme (Azotobacter vinelandii, UniProt C1DN94); chain MSESPLRLDRLRDFVSALGELLDRHPDEESVLREGRSLLGELVRHDDWLPEEFAQPDPERYQQYLLHADSRQRFSVVSFVWGPGQTTPVHDHRVWGLIGMLRGAEDAQSFELGAEGLRPIGDPVRLSPGQVEAVSPRIGDIHRVFNASPDQPSISIHVYGANIGAVRRAVYLPDGSEKPFISGYSNQFLPNIWDQSKESARP
B5: enzyme H130Y (Salinispora arenicola, UniProt A8M783); chain MASTPWISFTTDYGLADGFVAACHGVLARLAPTARVIDVTHLVPPGDVRRGAAVLAQTVPYLPAAVHVAVVDPGVGTARRAIALTAGNGLLVGPDNGLLLDAATALGGVDAAVELTNPDWLGARMSATFYGRDVFAPVAARLALGAPLADAGPAVEPGALVRLPTPLVQPETDGFTAEVLTVDHFGNVQLAATGALLESLPRSLRVAHRPAVHARTFDDAPPGGLLVHVDSAGLVAVAVNGGRAADLLAVTPGDQLRVTAG
B6: enzyme S252E (Schizosaccharomyces pombe, UniProt P78804); chain MSTPYEPEFQQAYKEIVGSIESSKLFEVHPELKRVLPIISIPERVLEFRVTWEDDKGNCRVNTGYRVQFNSALGPYKGGLRFHPSVNLSILKFLGFEQIFKNALTGLPMGGGKGGSDFDPKGKSDNEIRRFSQAFMRQLFRYIGPQTDVPAGDIGVTGFVVMHMFGEYKRLRNEYSGVVTGKHMLTGGSNIRPEATGYGVVYYVKHMIEHRTKGAETLKGKRVAISGSGNVAQYAALKCIQEGAIVKSISDEKGVLIAKTAEGLVPEEIHEIMALKEKRASIADSASLCKKHHYIAGARPWTNVGEIDIALPCATQNEVSGEEAAALIKQGCRYVAEGSNMGSSAEAVEVFEKSRASGEGCWLAPGKAANAGGVAVSGLEMAQNAQFSTWTHAEVDAKLAGIMQNIFEQSTDVASKYCDSGSNNIPSLVDGANIAGFLKVATAMQAVGDWW
B7: aspC A106G/A218G/F210I/I29V/I33V/I68L/I71L/N30D/N64T/S135A/T100S/V136I/V375I (Escherichia coli, UniProt P00509); chain MFENITAAPADPILGLADLFRADERPGKVDLGVGVYKDETGKTPVLTSVKKAEQYLLENETTKTYLGLDGLPEFGRCTQELLFGKGSALINDKRARTAQSPGGTGGLRVAADFLAKNTSVKRVWVSNPSWPNHKAIFNSAGLEVREYAYYDAENHTLDFDALINSLNEAQAGDVVLFHGCCHNPTGIDPTLEQWQTLAQLSVEKGWLPLIDFAYQGFGRGLEEDAEGLRAFAAMHKELIVASSYSKNFGLYNERVGACTLVAADSETVDRAFSQMKAAIRANYSNPPAHGASVVATILSNDALRAIWEQELTDMRQRIQRMRQLFVNTLQEKGANRDFSFIIKQNGMFSFSGLTKEQVLRLREEFGVYAVASGRINVAGMTPDNMAPLCEAIVAVL
B8: enzyme N219A (Arabidopsis thaliana, UniProt Q9LJK1); chain EKCQEWLERVDSVTYSRDFTKDPIFISGSNKDFKSCSVDCVMGFTSDKKPDAAFGLSHQPGTLSIIRSMESAQYYQENNLAQARRKGYDIVMTTSLSSDVPVGYFSWAEYDIMAPVQPKTEKALAAAFISACAARNFRLQALEALMKTNVKIDSYGGCHRNRDGSVEKVEALKHYKFSLAFENTNEEDYVTEKFFQSLVAGSVPVVVGAPNIEEFAPSPDSFLHIKQMDDVKAVAKKMKYLADNPDAYNQTLRWKHEGPSDSFKALIDMAAVHSSCRLCIFVATRIREQEEKSPEFKRRPCKCTRGSETVYHLYVRERGRFDMESIFLKDGNLTLEALESAVLAKFMSLRYEPIWKKERPASLRGDGKLRVHGIYPIGLTQRQALYNFKFEGNSSLSTHIQRNPCPKFEVVFV
B9: enzyme C33S (UniProt A0A0P0CH59); chain MRIALFSDIHANLPALEAVLANMETQQLDAIYSLGDLVGYAPWPNEVVAEIRKRRIPTIAGNYDEGVGLWSPNCGCAYKTDTEKDLGQQSIDFTNNVVTEETRKYLRMLPRQLRLTFMDGSKEENKIELLLVHGSPRKINEYLFEDRPEKSFLKMMEEANADLLFFGHTHKPYHRAMPYEHEGQTRYRHAINIGSVGKPKDGDPRTGYVVVELTPESSLTQKDSIKVEFIRVPYDVETAAQAVEASPLPNEFAQMLRTA
UniProt Q978S7, sequence (whole entry, looked up): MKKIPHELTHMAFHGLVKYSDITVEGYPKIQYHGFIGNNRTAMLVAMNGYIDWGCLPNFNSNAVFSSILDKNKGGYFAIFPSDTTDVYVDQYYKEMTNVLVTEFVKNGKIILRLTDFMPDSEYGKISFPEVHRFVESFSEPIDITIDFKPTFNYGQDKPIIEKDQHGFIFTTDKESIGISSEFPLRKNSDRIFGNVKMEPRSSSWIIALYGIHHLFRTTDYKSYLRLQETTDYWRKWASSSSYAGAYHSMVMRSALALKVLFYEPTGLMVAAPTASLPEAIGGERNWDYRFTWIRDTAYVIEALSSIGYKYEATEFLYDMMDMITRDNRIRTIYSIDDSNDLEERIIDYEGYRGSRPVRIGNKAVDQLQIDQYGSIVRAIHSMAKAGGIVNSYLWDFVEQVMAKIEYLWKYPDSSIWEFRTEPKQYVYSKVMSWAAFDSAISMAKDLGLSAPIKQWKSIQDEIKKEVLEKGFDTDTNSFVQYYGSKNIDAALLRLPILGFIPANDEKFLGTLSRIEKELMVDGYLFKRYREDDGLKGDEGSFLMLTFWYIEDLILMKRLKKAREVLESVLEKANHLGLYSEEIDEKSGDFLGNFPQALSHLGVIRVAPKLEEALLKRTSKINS
UniProt Q9Z0E8, sequence (whole entry, looked up): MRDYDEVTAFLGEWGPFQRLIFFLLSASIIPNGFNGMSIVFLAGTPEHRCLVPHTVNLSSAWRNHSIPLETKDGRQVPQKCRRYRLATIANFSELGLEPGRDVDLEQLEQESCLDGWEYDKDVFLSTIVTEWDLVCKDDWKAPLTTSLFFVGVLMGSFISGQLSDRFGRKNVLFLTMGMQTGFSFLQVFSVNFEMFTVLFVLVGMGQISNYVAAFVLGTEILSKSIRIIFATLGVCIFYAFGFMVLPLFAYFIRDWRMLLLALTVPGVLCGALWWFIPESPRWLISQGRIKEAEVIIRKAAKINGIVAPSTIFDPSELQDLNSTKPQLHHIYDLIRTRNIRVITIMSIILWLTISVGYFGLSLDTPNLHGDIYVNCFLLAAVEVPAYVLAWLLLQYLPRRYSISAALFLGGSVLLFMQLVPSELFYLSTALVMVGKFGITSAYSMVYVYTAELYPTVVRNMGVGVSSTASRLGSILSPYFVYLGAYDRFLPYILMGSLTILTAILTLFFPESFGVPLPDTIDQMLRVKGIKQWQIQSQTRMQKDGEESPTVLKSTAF
UniProt A6NK06, sequence (whole entry, looked up): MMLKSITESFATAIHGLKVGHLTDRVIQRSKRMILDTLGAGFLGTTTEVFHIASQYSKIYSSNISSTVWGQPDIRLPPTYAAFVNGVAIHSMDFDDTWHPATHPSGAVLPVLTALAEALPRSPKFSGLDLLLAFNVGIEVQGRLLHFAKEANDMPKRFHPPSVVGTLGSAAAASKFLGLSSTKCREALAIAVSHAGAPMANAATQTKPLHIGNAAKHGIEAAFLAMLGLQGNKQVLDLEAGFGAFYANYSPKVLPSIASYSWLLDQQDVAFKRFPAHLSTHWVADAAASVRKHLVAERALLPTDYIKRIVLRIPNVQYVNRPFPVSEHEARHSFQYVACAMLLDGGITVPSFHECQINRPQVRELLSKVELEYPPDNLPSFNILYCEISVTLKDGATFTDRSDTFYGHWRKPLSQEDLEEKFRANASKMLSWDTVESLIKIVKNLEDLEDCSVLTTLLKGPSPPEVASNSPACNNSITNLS

| Substance | tested on | assay | system | conditions | how to read | measurement | result |
| --- | --- | --- | --- | --- | --- | --- | --- |
| FGSLLDYV | HLA class I histocompatibility antigen, A alpha chain, allele A*01:01 (Homo sapiens, UniProt P04439) | conformational ELISA | peptide | concentration not given | baseline: positive control peptide, direction not given | binding score | 0.1% |
| SEKHFRETEV | human MAGI1-2/6 PDZ construct (MBP fusion) | automated holdup | peptide, crude extract | concentration not given, uncorrected, unit not given | baseline: biotin control resin, higher = stronger binding | binding intensity | 0.649 |
| enzyme F30A (Homo sapiens, UniProt Q08623) | O=c1[nH]cc([C@@H]2O[C@H](COP(=O)(O)O)[C@@H](O)[C@H]2O)c(=O)[nH]1 | steady-state kinetics | – | pH 7, 25 °C | – | Km | 11 µM |
| B1 (PYCR2 R251C) | O=C(O)[C@@H]1CCC=N1 | steady-state kinetics | – | pH 7.5, 37 °C, apparent, with: NADH 500 µM | – | Km | 1320 µM |
| enzyme (UniProt A0A4R3LQ44) | O=C(O)[C@H](O)[C@@H](O)[C@@H](O)CO | steady-state kinetics | – | pH 7.5, 50 °C | – | Km | 7200 µM |
| B2 (UGT1A1) | CC(C)=CCc1cc2c(cc1O)O[C@H](c1ccc(O)cc1)CC2=O | steady-state kinetics | – | pH 7.4 | – | Km | 0.88 µM |
| B3 (enzyme) | CC(=O)N[C@H]1[C@@H]2OC[C@@H](O2)[C@@H](O)[C@@H]1O[C@H](C)C(=O)O | steady-state kinetics | – | pH 7.5, apparent | – | Km | 500 µM |
| B4 (enzyme) | O=C(O)CCS | steady-state kinetics | – | pH 8, 25 °C, with: O2 | – | Km | 13 µM |
| B5 (enzyme H130Y) | C[S+](CC[C@H](N)C(=O)O)C[C@H]1O[C@@H](n2cnc3c(N)ncnc32)[C@H](O)[C@@H]1O | steady-state kinetics | – | pH 7.9, 37 °C, apparent, with: 1-200 µM SAM | – | Km | 1.7 µM |
| B6 (enzyme S252E) | NC(=O)C1=CN([C@@H]2O[C@H](COP(=O)(O)OP(=O)(O)OC[C@H]3O[C@@H](n4cnc5c(N)ncnc54)[C@H](OP(=O)(O)O)[C@@H]3O)[C@@H](O)[C@H]2O)C=CC1 | steady-state kinetics | – | pH 7, 30 °C, apparent | – | Km | 290 µM |
| gdh N192L/N97F (Bacillus subtilis) | NC(=O)c1ccc[n+]([C@@H]2O[C@H](COP(=O)(O)OP(=O)(O)OC[C@H]3O[C@@H](n4cnc5c(N)ncnc54)[C@H](O)[C@@H]3O)[C@@H](O)[C@H]2O)c1 | steady-state kinetics | – | pH 7, 50 °C | – | Km | 250 µM |
| enzyme (Thermoplasma volcanium, UniProt Q978S7) | OC[C@H]1O[C@H](O[C@H]2O[C@H](CO)[C@@H](O)[C@H](O)[C@H]2O)[C@H](O)[C@@H](O)[C@@H]1O | steady-state kinetics | – | pH 3.7, 30 °C | – | Km | 66400 µM |
| enzyme (Treponema denticola, UniProt Q73LY9) | CC(=O)N[C@H]1[C@H](Oc2ccc([N+](=O)[O-])cc2)O[C@H](CO)[C@@H](O)[C@@H]1O[C@@H]1O[C@H](CO)[C@H](O)[C@H](O)[C@H]1O | steady-state kinetics | – | pH 6, 40 °C | – | Km | 4540 µM |
| enzyme (Pseudomonas poae, UniProt A0A2S9EJ63) | O=Cc1ccc(CO)o1 | steady-state kinetics | – | pH 8, 30 °C, with: 2 µM FAD | – | Km | 2250 µM |
| ACOD1 (Homo sapiens, UniProt A6NK06) | O=C(O)/C=C(/CC(=O)O)C(=O)O | steady-state kinetics | – | – | – | Km | 1080 µM |
| B7 | O=C(O)C(=O)Cc1ccccc1 | steady-state kinetics | – | pH 7.5, 25 °C, with: PLP 20 µM, ammonium acetate 10 mM | – | Km | 210 µM |
| enzyme (Ectocarpus siliculosus, UniProt D7FYY3) | C=C(OP(=O)(O)O)C(=O)O | steady-state kinetics | – | pH 5.5, 25 °C, with: 2 mM ADP | – | Km | 620 µM |
| HNL C81L/E79H/G176S/H103V/K236M/N104A/T11G/V106F (Hevea brasiliensis) | CC(=O)Oc1ccc([N+](=O)[O-])cc1 | steady-state kinetics | – | pH 7.2, 22 °C | – | Km | 160 µM |
| B8 (enzyme N219A) | C[C@@H]1O[C@H](OP(=O)(O)OP(=O)(O)OC[C@H]2O[C@@H](n3cnc4c(=O)[nH]c(N)nc43)[C@H](O)[C@@H]2O)[C@@H](O)[C@H](O)[C@@H]1O | steady-state kinetics | – | pH 6.5, 30 °C | – | Km | 330 µM |
| Slc22a5 (Mus musculus, UniProt Q9Z0E8) | COc1cc([C@@H]2c3cc4c(cc3[C@@H](O[C@@H]3O[C@@H]5CO[C@@H](C)O[C@H]5[C@H](O)[C@H]3O)[C@H]3COC(=O)[C@H]23)OCO4)cc(OC)c1O | steady-state kinetics | – | not purified | – | Km | 76.4 µM |
| QSARYRDTEL | human MAGI1-2/6 PDZ construct (MBP fusion) | automated holdup | peptide, purified PDZ protein | concentration not given, unit not given | baseline: biotin control resin, higher = stronger binding | binding intensity | 0.0402 |
| B9 (enzyme C33S) | O=[N+]([O-])c1ccc(OP(=O)(O)O)cc1 | steady-state kinetics | – | pH 7, 37 °C, with: Ni2+ 0.25 mM | – | Km | 13700 µM |

Some of these lines once more:
| Substance | tested on | assay | system | conditions | how to read | measurement | result |
| --- | --- | --- | --- | --- | --- | --- | --- |
| B8 (enzyme N219A) | C[C@@H]1O[C@H](OP(=O)(O)OP(=O)(O)OC[C@H]2O[C@@H](n3cnc4c(=O)[nH]c(N)nc43)[C@H](O)[C@@H]2O)[C@@H](O)[C@H](O)[C@@H]1O | steady-state kinetics | – | pH 6.5, 30 °C | – | Km | 330 µM |
| Slc22a5 (Mus musculus, UniProt Q9Z0E8) | COc1cc([C@@H]2c3cc4c(cc3[C@@H](O[C@@H]3O[C@@H]5CO[C@@H](C)O[C@H]5[C@H](O)[C@H]3O)[C@H]3COC(=O)[C@H]23)OCO4)cc(OC)c1O | steady-state kinetics | – | not purified | – | Km | 76.4 µM |
| QSARYRDTEL | human MAGI1-2/6 PDZ construct (MBP fusion) | automated holdup | peptide, purified PDZ protein | concentration not given, unit not given | baseline: biotin control resin, higher = stronger binding | binding intensity | 0.0402 |
